# Results of several laboratories.
# Lines come from different studies, so protocols differ. “And” joins repeats or separate records; there may be more than shown. ± marks the error that the study gave.
SMILES,tested on,assay,system,conditions,measurement,value
CC(C)OC(=O)[C@H](C)N[P@](=O)(OC[C@H]1O[C@@H](n2ccc(=O)[nH]c2=O)[C@](C)(F)[C@@H]1O)Oc1ccccc1,Venezuelan equine encephalitis virus,viral replication,"skin fibroblasts, TC83",72 h,EC50,12 ± 3 µM
Oc1cc(O)c2c(c1)O[C@H](c1cc(O)c(O)c(O)c1)[C@H](O)C2,"Spike glycoprotein (Severe acute respiratory syndrome coronavirus 2, UniProt P0DTC2)","binding, BLI",,,Kd,63.1 µM
Cn1cnc(Cn2c(=O)[nH]/c(=N\c3cc4cn(C)nc4cc3Cl)n(Cc3cc(F)c(F)cc3F)c2=O)n1,,,"human, all renal function groups","oral, 375 mg","dry mouth TEAE, Mild severity",3.1%
N#Cc1c(Nc2ccc(F)cc2)n[nH]c1NS(=O)(=O)c1ccc2ccccc2c1,Venezuelan equine encephalitis virus,viral replication,"Vero 76, TC-83",,EC50,> 8 µM
O=C(N1CCC2(CC1)C[C@@H](CN1CCCCS1(=O)=O)CCO2)C1(c2ccccc2)CCCC1,Venezuelan equine encephalitis virus,viral replication,MRC5,,EC50,> 40 µM
NCC1(O)CCOC2(CCN(C(=O)C3(c4ccccc4)CCCC3)CC2)C1 (stereo not drawn),Venezuelan equine encephalitis virus,viral replication,,,EC50,> 39.8 µM
NC(=O)c1nc(F)c[nH]c1=O,Venezuelan equine encephalitis virus,viral replication,"skin fibroblasts, TC83",72 h,EC50,> 200 µM
Cc1ccc(C2(C(=O)N3CCC4(CC3)CC(CNS(C)(=O)=O)CCO4)CCCC2)cc1 (stereo not drawn),Venezuelan equine encephalitis virus,viral replication,,,EC50,> 39.8 µM
C(#Cc1c[nH]c2nccc(-c3cccnc3)c12)c1cccnc1,Venezuelan equine encephalitis virus,viral replication,"U-87 MG, TC-83",,EC50,1.24 ± 0.19 µM
Nc1ncnc2c([C@@H]3N[C@H](CO)[C@@H](O)[C@H]3O)c[nH]c12,Marburg marburgvirus,viral glycoprotein surface expression,"HeLa, Musoke",50 µM,inhibition,97.7%
COc1cc(-c2ccnc3[nH]cc(C#Cc4cccnc4)c23)ccc1F,Venezuelan equine encephalitis virus,viral replication,"U-87 MG, TC-83",,EC50,> 10 µM
CC[C@H](C)[C@H](NC(=O)[C@H](CC(C)C)NC(=O)[C@H](Cc1c[nH]c2ccccc12)NC(=O)[C@H](CCC(N)=O)NC(=O)[C@@H](NC(=O)[C@H](Cc1ccccc1)NC(=O)[C@H](C)NC(=O)[C@H](CCCCNC(=O)COCCOCCNC(=O)COCCOCCNC(=O)CC[C@H](NC(=O)CCCCCCCCCCCCCCCCCCC(=O)O)C(=O)O)NC(=O)[C@H](CCC(N)=O)NC(=O)[C@H](C)NC(=O)[C@@H](NC(=O)[C@H](CCCCN)NC(=O)[C@H](CC(=O)O)NC(=O)[C@H](CC(C)C)NC(=O)C(C)(C)NC(=O)[C@@H](NC(=O)[C@H](CO)NC(=O)[C@H](Cc1ccc(O)cc1)NC(=O)[C@H](CC(=O)O)NC(=O)[C@H](CO)NC(=O)[C@@H](NC(=O)[C@H](Cc1ccccc1)NC(=O)[C@@H](NC(=O)CNC(=O)[C@H](CCC(=O)O)NC(=O)C(C)(C)NC(=O)[C@@H](N)Cc1ccc(O)cc1)[C@@H](C)O)[C@@H](C)O)[C@@H](C)CC)[C@@H](C)CC)C(C)C)C(=O)N[C@@H](C)C(=O)NCC(=O)NCC(=O)N1CCC[C@H]1C(=O)N[C@@H](CO)C(=O)N[C@@H](CO)C(=O)NCC(=O)N[C@@H](C)C(=O)N1CCC[C@H]1C(=O)N1CCC[C@H]1C(=O)N1CCC[C@H]1C(=O)N[C@@H](CO)C(N)=O,,,"healthy subjects, single ascending dose","8.0 mg, day 29",serum lipase,50.1 ± 23.9 U/L
C(#Cc1c[nH]c2nccc(-c3ccncc3)c12)c1cccnc1,Venezuelan equine encephalitis virus,viral replication,"U-87 MG, TC-83",,EC50,0.59 ± 0.28 µM
CS(=O)(=O)NCC1CCOC2(CCN(C(=O)Cc3ccccc3)CC2)C1 (stereo not drawn),Venezuelan equine encephalitis virus,viral replication,,,EC50,> 39.8 µM
CNC(=O)[C@@H](NC(=O)[C@H](CC(C)C)[C@H](O)C(=O)NO)C(C)(C)C,,prothrombin time,human platelet-poor plasma,"0.1 µM, with: GA venom",inhibition,5% and 7.8% and 6%

# Some of these lines once more:
SMILES,tested on,assay,system,conditions,measurement,value
COc1cc(-c2ccnc3[nH]cc(C#Cc4cccnc4)c23)ccc1F,Venezuelan equine encephalitis virus,viral replication,"U-87 MG, TC-83",,EC50,> 10 µM
